Assay results of several laboratories.
Each line is one published result; not all experiments were run side by side.
Technique: steady-state kinetics
B1: KS T527V (Arabidopsis thaliana, UniProt Q9SAK2); chain ANNVSFEQTKEKIRKMLEKVELSVSAYDTSWVAMVPSPSSQNAPLFPQCVKWLLDNQHEDGSWGLDNHDHQSLKKDVLSSTLASILALKKWGIGERQINKGLQFIELNSALVTDETIQKPTGFDIIFPGMIKYARDLNLTIPLGSEVVDDMIRKRDLDLKCDSEKFSKGREAYLAYVLEGTRNLKDWDLIVKYQRKNGSLFDSPATTAAAFTQFGNDGCLRYLCSLLQKFEAAVPSVYPFDQYARLSIIVTLESLGIDRDFKTEIKSILDETYRYWLRGDEEICLDLATCALAFRLLLAHGYDVSYDPLKPFAEESGFSDTLEGYVKNTFSVLELFKAAQSYPHESALKKQCCWTKQYLEMELSSWVKTSVRDKYLKKEVEDALAFPSYASLERSDHRRKILNGSAVENTRVTKTSYRLHNICTSDILKLAVDDFNFCQSIHREEMERLDRWIVENRLQELKFARQKLAYCYFSGAATLFSPELSDARISWAKGGVLVTVVDDFFDVGGSKEELENLIHLVEKWDLNGVPEYSSEHVEIIFSVLRDTILETGDKAFTYQGRNVTHHIVKIWLDLLKSMLREAEWSSDKSTPSLEDYMENAYISFALGPIVLPATYLIGPPLPEKTVDSHQYNQLYKLVSTMGRLLNDIQGFKRESAEGKLNAVSLHMKHERDNRSKEVIIESMKGLAERKREELHKLVLEEKGSVVPRECKEAFLKMSKVLNLFYRKDDGFTSNDLMSLVKSVIYEPVSLQEESLT
B2: Pck1 (Rattus norvegicus, UniProt P07379); chain MPPQLHNGLDFSAKVIQGSLDSLPQEVRKFVEGNAQLCQPEYIHICDGSEEEYGRLLAHMQEEGVIRKLKKYDNCWLALTDPRDVARIESKTVIITQEQRDTVPIPKSGQSQLGRWMSEEDFEKAFNARFPGCMKGRTMYVIPFSMGPLGSPLAKIGIELTDSPYVVASMRIMTRMGTSVLEALGDGEFIKCLHSVGCPLPLKKPLVNNWACNPELTLIAHLPDRREIISFGSGYGGNSLLGKKCFALRIASRLAKEEGWLAEHMLILGITNPEGKKKYLAAAFPSACGKTNLAMMNPTLPGWKVECVGDDIAWMKFDAQGNLRAINPENGFFGVAPGTSVKTNPNAIKTIQKNTIFTNVAETSDGGVYWEGIDEPLAPGVTITSWKNKEWRPQDEEPCAHPNSRFCTPASQCPIIDPAWESPEGVPIEGIIFGGRRPAGVPLVYEALSWQHGVFVGAAMRSEATAAAEHKGKVIMHDPFAMRPFFGYNFGKYLAHWLSMAHRPAAKLPKIFHVNWFRKDKNGKFLWPGFGENSRVLEWMFGRIEGEDSAKLTPIGYVPKEDALNLKGLGDVNVEELFGISKEFWEKEVEEIDKYLEDQVNADLPYEIERELRALKQRISQM
B3: UGT1A9 (Homo sapiens, UniProt O60656); chain GKLLVVPMDGSHWFTMRSVVEKLILRGHEVVVVMPEVSWQLGRSLNCTVKTYSTSYTLEDLDREFKAFAHAQWKAQVRSIYSLLMGSYNDIFDLFFSNCRSLFKDKKLVEYLKESSFDAVFLDPFDNCGLIVAKYFSLPSVVFARGILCHYLEEGAQCPAPLSYVPRILLGFSDAMTFKERVRNHIMHLEEHLLCHRFFKNALEIASEILQTPVTEYDLYSHTSIWLLRTDFVLDYPKPVMPNMIFIGGINCHQGKPLPMEFEAYINASGEHGIVVFSLGSMVSEIPEKKAMAIADALGKIPQTVLWRYTGTRPSNLANNTILVKWLPQNDLLGHPMTRAFITHAGSHGVYESICNGVPMVMMPLFGDQMDNAKRMETKGAGVTLNVLEMTSEDLENALKAVINDKSYKENIMRLSSLHKDRPVEPLDLAVFWVEFVMRHKGAPHLRPAAHDLTWYQYHSLDVIGFLLAVVLTVAFITFKCCAYGYRKCLGKKGRVKKAHKSKTH
B4: BaiA1 (Clostridium scindens, UniProt P07914); chain MKLVQDKITIITGGTRGIGFAAAKLFIENGAKVSIFGETQEEVDTALAQLKELYPEEEVLGFAPDLTSRDAVMAAVGTVAQKYGRLDVMINNAGITMNSVFSRVSEEDFKNIMDINVNGVFNGAWSAYQCMKDAKQGVIINTASVTGIYGSLSGIGYPTSKAGVIGLTHGLGREIIRKNIRVVGVAPGVVDTDMTKGLPPEILEDYLKTLPMKRMLKPEEIANVYLFLASDLASGITATTISVDGAYRP
B5: MauG P127V (Paracoccus denitrificans, UniProt Q51658); chain EQARPADDALAALGAQLFVDPALSRNATQSCATCHDPARAFTDPREGKAGLAVSVGDDGQSHGDRNTPTLGYAALVPAFHRDANGKYKGGQFWDGRADDLKQQAGQVMLNPVEMAMPDRAAVAARLRDDPAYRTGFEALFGKGVLDDPERAFDAAAEALAAYQATGEFSPFDSKYDRVMRGEEKFTPLEEFGYTVFITWNCRLCHMQRKQGVAERETFTNFEYHNIGLPVNETAREASGLGADHVDHGLLARPGIEDPAQSGRFKVPSLRNVAVTGPYMHNGVFTDLRTAILFYNKYTSRRPEAKINPETGAPWGEPEVARNLSLAELQSGLMLDDGRVDALVAFLETLTDRRYEPLLEESRAAQKD
B6: carbamoyl phosphate synthetase large subunit M174E (Escherichia coli, UniProt P00968); chain PKRTDIKSILILGAGPIVIGQACEFDYSGAQACKALREEGYRVILVNSNPATIMTDPEMADATYIEPIHWEVVRKIIEKERPDAVLPTMGGQTALNCALELERQGVLEEFGVTMIGATADAIDKAEDRRRFDVAMKKIGLETARSGIAHTMEEALAVAADVGFPCIIRPSFTEGGSGGGIAYNREEFEEICARGLDLSPTKELLIDESLIGWKEYEMEVVRDKNDNCIIVCSIENFDAMGIHTGDSITVAPAQTLTDKEYQIMRNASMAVLREIGVETGGSNVQFAVNPKNGRLIVIEMNPRVSRSSALASKATGFPIAKVAAKLAVGYTLDELMNDITGGRTPASFEPSIDYVVTKIPRFNFEKFAGANDRLTTQMKSVGEVMAIGRTQQESLQKALRGLEVGATGFDPKVSLDDPEALTKIRRELKDAGADRIWYIADAFRAGLSVDGVFNLTNIDRWFLVQIEELVRLEEKVAEVGITGLNADFLRQLKRKGFADARLAKLAGVREAEIRKLRDQYDLHPVYKRVDTCAAEFATDTAYMYSTYEEECEANPSTDREKIMVLGGGPNRIGQGIEFDYCCVHASLALREDGYETIMVNCNPETVSTDYDTSDRLYFEPVTLEDVLEIVRIEKPKGVIVQYGGQTPLKLARALEAAGVPVIGTSPDAIDRAEDRERFQHAVERLKLKQPANATVTAIEMAVEKAKEIGYPLVVRPSYVLGGRAMEIVYDEADLRRYFQTAVSVSNDAPVLLDHFLDDAVEVDVDAICDGEMVLIGGIMEHIEQAGVHSGDSACSLPAYTLSQEIQDVMRQQVQKLAFELQVRGLMNVQFAVKNNEVYLIEVNPRAARTVPFVSKATGVPLAKVAARVMAGKSLAEQGVTKEVIPPYYSVKEVVLPFNKFPGVDPLLGPEMRSTGEVMGVGRTFAEAFAKAQLGSNSTMKKHGRALLSVREGDKERVVDLAAKLLKQGFELDATHGTAIVLGEAGINPRLVNKVHEGRPHIQDRIKNGEYTYIINTTSGRRAIEDSRVIRRSALQYKVHYDTTLNGGFATAMALNADATEKVISVQEMHAQIK
B7: CstB (Staphylococcus aureus, UniProt G5ELA4); chain MFFKQFYDNHLSQASYLVGCQRTGEAIIIDPVRDLSKYIEVADSEGLTITQATETHIHADFASGIRDVAKRLNANIYVSGEGEDALGYKNMPSKTQFVKHGDIIQVGNVKLEVLHTPGHTPESISFLLTDLGGGSSVPMGLFSGDFIFVGDIGRPDLLEKSVQIKGSTEISAKQMYESVQNIKNLPDYVQIWPGHGAGSPCGKALGAIPISTIGYEKINNWAFNEIDETKFIESLTSNQPAPPHHFAQMKQVNQFGMNLYQSYDVYPSLDNKRVAFDLRSKEAFHGGHTKGTINIPYNKNFINQIGWYLDFEKDIDLIGDKSTVEKAKHTLQLIGFDKVAGYRLPKSGISTQSVHSADMTGKEEHVLDVRNDEEWNNGHLDQAVNIPHGKLLNENIPFNKEDKIYVHCQSGVRSSIAVGILESKGFENVVNIREGYQDFPESLK
B8: thyA H147V (Escherichia coli, UniProt P0A884); chain MKQYLELMQKVLDEGTQKNDRTGTGTLSIFGHQMRFNLQDGFPLVTTKRCHLRSIIHELLWFLQGDTNIAYLHENNVTIWDEWADENGDLGPVYGKQWRAWPTPDGRHIDQITTVLNQLKNDPDSRRIIVSAWNVGELDKMALAPCVAFFQFYVADGKLSCQLYQRSCDVFLGLPFNIASYALLVHMMAQQCDLEVGDFVWTGGDTHLYSNHMDQTHLQLSREPRPLPKLIIKRKPESIFDYRFEDFEIEGYDPHPGIKAPVAI
B9: protein (Anopheles gambiae, UniProt Q7PXJ0); chain MPFPYSIDFVESKQNEQLLKDFHGERTGFVQVGEKRWFFPSRFKQYAESLYSFEARPDDTWIVTYPRSGTTWSQEMVWLLCNELDFETAKSIPLTQRFPFLEFHLFVHDEVKAEFLKENEHDVESMKFIEQLSQPAGFMLAEMKTPRFIKTHLPISLLPPSVFEQKAKIIYVARNPSDVAVSYYHLNRLYRTQGYVGDFETFYNYFEKDLTPWSPYWEHIKEGWAERDRENVLFMYYEDMKRNLPDTIRKTAAFLGKSFSDDQIDTMCTHLDIRNFRHNKSVTCEELKAVGILNSGEQGFVRNGQVRGNAEEMTDDIKRRLNEWTERNLNGTDIRFPDC
B10: BPHL (Homo sapiens, UniProt Q86WA6); chain SVTSAKVAVNGVQLHYQQTGEGDHAVLLLPGMLGSGETDFGPQLKNLNKKLFTVVAWDPRGYGHSRPPDRDFPADFFERDAKDAVDLMKALKFKKVSLLGWSDGGITALIAAAKYPSYIHKMVIWGANAYVTDEDSMIYEGIRDVSKWSERTRKPLEALYGYDYFARTCEKWVDGIRQFKHLPDGNICRHLLPRVQCPALIVHGEKDPLVPRFHADFIHKHVKGSRLHLMPEGKHNLHLRFADEFNKLAEDFLQ
Chain of UniProt Q949Q0 (whole entry, looked up): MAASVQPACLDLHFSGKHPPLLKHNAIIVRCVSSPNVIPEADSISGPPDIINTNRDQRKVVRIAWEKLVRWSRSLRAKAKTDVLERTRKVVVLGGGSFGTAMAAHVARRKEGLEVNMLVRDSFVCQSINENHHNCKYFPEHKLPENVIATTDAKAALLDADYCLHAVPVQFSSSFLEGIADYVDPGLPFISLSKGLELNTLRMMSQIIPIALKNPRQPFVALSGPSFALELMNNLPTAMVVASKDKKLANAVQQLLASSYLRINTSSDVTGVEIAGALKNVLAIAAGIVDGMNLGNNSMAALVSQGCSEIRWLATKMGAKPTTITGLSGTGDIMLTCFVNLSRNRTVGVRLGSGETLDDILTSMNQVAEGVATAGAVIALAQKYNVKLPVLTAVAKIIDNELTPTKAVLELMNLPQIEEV
Chain of UniProt Q01740 (whole entry, looked up): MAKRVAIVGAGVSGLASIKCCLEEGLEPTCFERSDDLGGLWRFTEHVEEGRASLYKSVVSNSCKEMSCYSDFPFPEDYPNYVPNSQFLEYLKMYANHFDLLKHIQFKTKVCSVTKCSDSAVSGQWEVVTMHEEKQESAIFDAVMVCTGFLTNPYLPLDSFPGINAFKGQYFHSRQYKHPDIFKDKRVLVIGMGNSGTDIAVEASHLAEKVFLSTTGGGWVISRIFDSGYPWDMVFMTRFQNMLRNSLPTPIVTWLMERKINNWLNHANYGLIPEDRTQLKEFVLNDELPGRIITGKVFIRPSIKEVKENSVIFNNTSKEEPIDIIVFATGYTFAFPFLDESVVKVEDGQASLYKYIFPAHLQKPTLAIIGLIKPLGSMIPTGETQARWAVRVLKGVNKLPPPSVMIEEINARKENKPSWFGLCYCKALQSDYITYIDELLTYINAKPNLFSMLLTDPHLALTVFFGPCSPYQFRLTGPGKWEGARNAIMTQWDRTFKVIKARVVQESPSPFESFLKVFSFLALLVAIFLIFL

Molecule | substrate | pH | temperature | setting | added | Km [µM]
B1 (KS T527V) | C=C1CC[C@@H]2C(C)(C)CCC[C@@]2(C)[C@@H]1CC/C(C)=C/COP(=O)(O)OP(=O)(O)O | pH 7.2 | 30 °C | GGPP-derived substrate |  | 9
B2 (Pck1) | Nc1nc2c(ncn2[C@@H]2O[C@H](COP(=O)(O)OP(=O)(O)OP(=O)(O)O)[C@@H](O)[C@H]2O)c(=O)[nH]1 | pH 7.5 | 25 °C |  | OAA, GTP | 68
B3 (UGT1A9) | O=c1ccoc2cc(O)ccc12 | pH 7.4 | 37 °C |  |  | 82.8
B4 (BaiA1) | C[C@H](CCC(=O)SCCNC(=O)CCNC(=O)[C@H](O)C(C)(C)COP(=O)(O)OP(=O)(O)OC[C@H]1O[C@@H](n2cnc3c(N)ncnc32)[C@H](O)[C@@H]1OP(=O)(O)O)[C@H]1CC[C@H]2[C@@H]3CC[C@@H]4C[C@H](O)CC[C@]4(C)[C@H]3C[C@H](O)[C@]12C | pH 8.7 | 37 °C |  | NAD+ | 16
B5 (MauG P127V) | O=C1O[C@H]([C@@H](O)CO)C(O)=C1O | pH 7.5 | 25 °C |  | H2O2 100 µM | 2.2
B6 | Nc1ncnc2c1ncn2[C@@H]1O[C@H](COP(=O)(O)OP(=O)(O)OP(=O)(O)O)[C@@H](O)[C@H]1O | pH 7.6 |  | KCl 100 mM | glutamine 10 mM, ornithine 10 mM | 690
B7 (CstB) | CC(C)(COP(=O)(O)OP(=O)(O)OC[C@H]1O[C@@H](n2cnc3c(N)ncnc32)[C@H](O)[C@@H]1OP(=O)(O)O)[C@@H](O)C(=O)NCCC(=O)NCCSS | pH 6 | 25 °C | NaBr 100 mM, air-saturated | Fe(II), O2 | 1100
enzyme (UniProt A0A7J5BGR1) | Oc1ccc2c(c1)CCC2 | pH 8 | 25 °C |  |  | 425
enzyme (Arabidopsis thaliana, UniProt Q949Q0) | O=C(CO)COP(=O)(O)O | pH 7.2 | 30 °C | apparent |  | 0.33
B8 (thyA H147V) | Nc1nc2c(c(=O)[nH]1)N1CN(c3ccc(C(=O)N[C@@H](CCC(=O)O)C(=O)O)cc3)C[C@H]1CN2 |  | 25 °C | substrate inhibition by CH2H4folate, cofactor varied | dUMP 200 µM | 25
FMO1 (Homo sapiens, UniProt Q01740) | CN1CCC[C@H]1c1cccnc1 | pH 8.5 | 37 °C | not purified |  | 1200
B9 (protein) | Nc1ncnc2c1ncn2[C@@H]1O[C@H](COP(=O)(O)OS(=O)(=O)O)[C@@H](OP(=O)(O)O)[C@H]1O | pH 6.5 | 37 °C |  | sulfate donor | 49.3
B10 (BPHL) | CC(C)[C@H](N)C(=O)NCc1cccc(NC=NN)c1 | pH 7.4 | 37 °C |  |  | 1810

For quick reference, copied from above:
Molecule | substrate | pH | temperature | setting | added | Km [µM]
B9 (protein) | Nc1ncnc2c1ncn2[C@@H]1O[C@H](COP(=O)(O)OS(=O)(=O)O)[C@@H](OP(=O)(O)O)[C@H]1O | pH 6.5 | 37 °C |  | sulfate donor | 49.3
B5 (MauG P127V) | O=C1O[C@H]([C@@H](O)CO)C(O)=C1O | pH 7.5 | 25 °C |  | H2O2 100 µM | 2.2
